# Measurements of several laboratories.
# Lines come from different studies, so protocols differ. ± gives the spread as reported.
# Seed linoleate 13S-lipoxygenase-1: Seed linoleate 13S-lipoxygenase-1 (Glycine max, UniProt P08170)
# Chain of UniProt P08170 (whole entry, looked up): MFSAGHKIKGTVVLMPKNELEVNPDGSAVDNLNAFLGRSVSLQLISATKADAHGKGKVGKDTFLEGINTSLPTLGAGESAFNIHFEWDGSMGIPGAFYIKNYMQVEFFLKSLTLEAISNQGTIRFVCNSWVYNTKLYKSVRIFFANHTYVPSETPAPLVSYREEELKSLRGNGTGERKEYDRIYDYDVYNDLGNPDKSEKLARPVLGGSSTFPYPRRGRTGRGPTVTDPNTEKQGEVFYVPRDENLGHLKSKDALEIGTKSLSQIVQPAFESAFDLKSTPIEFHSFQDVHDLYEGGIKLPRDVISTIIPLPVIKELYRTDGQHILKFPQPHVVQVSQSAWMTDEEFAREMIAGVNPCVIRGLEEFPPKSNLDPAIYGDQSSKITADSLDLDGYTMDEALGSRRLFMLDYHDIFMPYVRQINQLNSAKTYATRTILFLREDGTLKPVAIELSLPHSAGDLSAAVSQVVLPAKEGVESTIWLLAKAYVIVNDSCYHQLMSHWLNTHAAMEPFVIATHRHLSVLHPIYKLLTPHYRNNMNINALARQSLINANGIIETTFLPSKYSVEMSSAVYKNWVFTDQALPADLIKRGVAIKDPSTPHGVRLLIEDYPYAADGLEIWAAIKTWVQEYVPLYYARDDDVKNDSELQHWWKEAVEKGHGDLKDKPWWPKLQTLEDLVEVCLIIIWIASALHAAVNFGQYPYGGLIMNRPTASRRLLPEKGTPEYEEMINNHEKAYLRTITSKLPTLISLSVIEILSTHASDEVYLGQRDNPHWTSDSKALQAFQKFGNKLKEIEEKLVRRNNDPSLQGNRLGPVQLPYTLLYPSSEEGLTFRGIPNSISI
# YES1: Tyrosine-protein kinase Yes (YES1, Homo sapiens, UniProt P07947)
# Chain of UniProt P07947 (whole entry, looked up): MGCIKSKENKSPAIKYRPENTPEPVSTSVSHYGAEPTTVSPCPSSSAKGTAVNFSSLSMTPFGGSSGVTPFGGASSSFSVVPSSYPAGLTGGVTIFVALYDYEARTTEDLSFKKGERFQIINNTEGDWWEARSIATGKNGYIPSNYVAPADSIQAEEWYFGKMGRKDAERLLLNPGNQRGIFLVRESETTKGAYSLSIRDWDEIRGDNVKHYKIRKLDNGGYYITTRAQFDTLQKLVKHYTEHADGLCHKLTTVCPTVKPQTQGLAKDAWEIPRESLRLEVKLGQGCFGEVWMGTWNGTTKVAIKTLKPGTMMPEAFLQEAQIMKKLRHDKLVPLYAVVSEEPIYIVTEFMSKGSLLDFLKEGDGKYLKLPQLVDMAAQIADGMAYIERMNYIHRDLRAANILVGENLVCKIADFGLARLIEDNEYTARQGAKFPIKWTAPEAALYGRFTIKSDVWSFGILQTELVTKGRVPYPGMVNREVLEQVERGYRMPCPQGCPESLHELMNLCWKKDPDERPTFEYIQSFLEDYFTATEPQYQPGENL
# TPR: Trypanothione reductase (TPR, Trypanosoma brucei brucei, UniProt P39051)
# Chain of UniProt P39051 (whole entry, looked up): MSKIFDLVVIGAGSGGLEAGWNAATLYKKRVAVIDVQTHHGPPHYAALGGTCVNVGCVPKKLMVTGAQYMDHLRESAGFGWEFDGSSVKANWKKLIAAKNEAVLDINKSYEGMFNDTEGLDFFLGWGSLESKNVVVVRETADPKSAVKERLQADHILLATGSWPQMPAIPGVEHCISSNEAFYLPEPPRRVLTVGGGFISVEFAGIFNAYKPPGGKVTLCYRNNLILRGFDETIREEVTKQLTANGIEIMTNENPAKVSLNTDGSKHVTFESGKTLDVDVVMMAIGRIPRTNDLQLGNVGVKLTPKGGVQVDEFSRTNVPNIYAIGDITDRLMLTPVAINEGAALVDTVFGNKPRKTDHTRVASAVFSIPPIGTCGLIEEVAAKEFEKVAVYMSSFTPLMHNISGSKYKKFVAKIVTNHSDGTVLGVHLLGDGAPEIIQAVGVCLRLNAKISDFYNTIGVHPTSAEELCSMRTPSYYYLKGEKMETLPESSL
# RPS6KA3 C-terminal kinase domain: Ribosomal protein S6 kinase alpha-3, C-terminal kinase domain (RPS6KA3, Homo sapiens, UniProt P51812)
# Chain of UniProt P51812 (whole entry, looked up): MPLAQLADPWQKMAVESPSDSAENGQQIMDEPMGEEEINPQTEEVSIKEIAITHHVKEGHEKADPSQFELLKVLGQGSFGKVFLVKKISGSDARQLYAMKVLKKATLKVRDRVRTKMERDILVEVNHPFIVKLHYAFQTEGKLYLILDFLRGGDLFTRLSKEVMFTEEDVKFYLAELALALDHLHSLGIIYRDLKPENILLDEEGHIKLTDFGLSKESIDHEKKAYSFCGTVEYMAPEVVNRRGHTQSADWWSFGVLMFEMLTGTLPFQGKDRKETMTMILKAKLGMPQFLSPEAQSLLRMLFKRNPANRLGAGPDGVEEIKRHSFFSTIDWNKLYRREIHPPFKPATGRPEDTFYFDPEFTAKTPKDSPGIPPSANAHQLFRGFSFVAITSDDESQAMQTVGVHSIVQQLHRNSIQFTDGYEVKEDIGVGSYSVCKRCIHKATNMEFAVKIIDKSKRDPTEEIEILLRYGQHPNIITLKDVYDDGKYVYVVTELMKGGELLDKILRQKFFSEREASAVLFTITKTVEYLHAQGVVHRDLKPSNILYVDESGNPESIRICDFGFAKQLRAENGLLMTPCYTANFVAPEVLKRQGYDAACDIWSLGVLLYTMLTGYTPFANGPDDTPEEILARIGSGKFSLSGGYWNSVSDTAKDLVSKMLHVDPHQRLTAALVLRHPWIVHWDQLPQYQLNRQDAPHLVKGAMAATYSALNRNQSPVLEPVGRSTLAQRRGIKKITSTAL
# Chain of UniProt Q04771 (whole entry, unmodified, looked up): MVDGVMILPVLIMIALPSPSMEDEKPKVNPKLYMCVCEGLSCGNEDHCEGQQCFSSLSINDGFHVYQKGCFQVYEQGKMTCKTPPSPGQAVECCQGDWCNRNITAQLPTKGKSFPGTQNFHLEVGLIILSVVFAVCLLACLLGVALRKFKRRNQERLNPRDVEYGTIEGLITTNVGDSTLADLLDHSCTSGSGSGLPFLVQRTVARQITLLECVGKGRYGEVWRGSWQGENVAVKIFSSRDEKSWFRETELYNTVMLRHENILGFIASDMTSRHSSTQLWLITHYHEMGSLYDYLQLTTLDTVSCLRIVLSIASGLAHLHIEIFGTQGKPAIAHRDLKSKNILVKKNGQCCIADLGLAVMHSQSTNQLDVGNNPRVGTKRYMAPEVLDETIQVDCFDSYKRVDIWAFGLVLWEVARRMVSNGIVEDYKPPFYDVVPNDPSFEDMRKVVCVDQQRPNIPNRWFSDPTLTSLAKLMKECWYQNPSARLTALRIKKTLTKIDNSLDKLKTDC
# Chain of UniProt P11712 (whole entry, looked up): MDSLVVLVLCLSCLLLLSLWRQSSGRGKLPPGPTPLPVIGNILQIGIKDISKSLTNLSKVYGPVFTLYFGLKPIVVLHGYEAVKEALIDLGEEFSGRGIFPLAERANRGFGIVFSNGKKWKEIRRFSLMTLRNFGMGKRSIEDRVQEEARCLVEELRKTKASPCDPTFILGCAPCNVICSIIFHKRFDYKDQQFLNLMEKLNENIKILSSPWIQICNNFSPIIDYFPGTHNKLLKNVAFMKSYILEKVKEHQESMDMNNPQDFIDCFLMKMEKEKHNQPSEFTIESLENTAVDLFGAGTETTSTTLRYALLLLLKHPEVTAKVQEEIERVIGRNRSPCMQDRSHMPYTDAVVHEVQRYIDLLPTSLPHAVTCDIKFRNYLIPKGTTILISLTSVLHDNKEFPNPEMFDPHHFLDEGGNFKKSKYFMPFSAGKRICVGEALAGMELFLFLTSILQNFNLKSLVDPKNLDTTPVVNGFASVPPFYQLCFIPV
# Chain of UniProt P32745 (whole entry, looked up): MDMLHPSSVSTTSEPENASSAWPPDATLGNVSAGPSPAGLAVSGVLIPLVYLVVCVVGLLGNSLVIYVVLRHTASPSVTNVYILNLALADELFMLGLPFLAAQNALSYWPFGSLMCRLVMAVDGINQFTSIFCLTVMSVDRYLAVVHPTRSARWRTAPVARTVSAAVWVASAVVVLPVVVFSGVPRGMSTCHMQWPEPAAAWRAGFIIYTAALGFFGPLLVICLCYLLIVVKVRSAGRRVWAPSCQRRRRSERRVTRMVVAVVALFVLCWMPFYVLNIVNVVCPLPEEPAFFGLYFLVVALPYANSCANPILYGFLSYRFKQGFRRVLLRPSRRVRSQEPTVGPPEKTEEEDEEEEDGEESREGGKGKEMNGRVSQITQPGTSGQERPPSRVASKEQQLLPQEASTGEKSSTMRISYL
# Chain of UniProt Q6SZW1 (whole entry, unmodified, looked up): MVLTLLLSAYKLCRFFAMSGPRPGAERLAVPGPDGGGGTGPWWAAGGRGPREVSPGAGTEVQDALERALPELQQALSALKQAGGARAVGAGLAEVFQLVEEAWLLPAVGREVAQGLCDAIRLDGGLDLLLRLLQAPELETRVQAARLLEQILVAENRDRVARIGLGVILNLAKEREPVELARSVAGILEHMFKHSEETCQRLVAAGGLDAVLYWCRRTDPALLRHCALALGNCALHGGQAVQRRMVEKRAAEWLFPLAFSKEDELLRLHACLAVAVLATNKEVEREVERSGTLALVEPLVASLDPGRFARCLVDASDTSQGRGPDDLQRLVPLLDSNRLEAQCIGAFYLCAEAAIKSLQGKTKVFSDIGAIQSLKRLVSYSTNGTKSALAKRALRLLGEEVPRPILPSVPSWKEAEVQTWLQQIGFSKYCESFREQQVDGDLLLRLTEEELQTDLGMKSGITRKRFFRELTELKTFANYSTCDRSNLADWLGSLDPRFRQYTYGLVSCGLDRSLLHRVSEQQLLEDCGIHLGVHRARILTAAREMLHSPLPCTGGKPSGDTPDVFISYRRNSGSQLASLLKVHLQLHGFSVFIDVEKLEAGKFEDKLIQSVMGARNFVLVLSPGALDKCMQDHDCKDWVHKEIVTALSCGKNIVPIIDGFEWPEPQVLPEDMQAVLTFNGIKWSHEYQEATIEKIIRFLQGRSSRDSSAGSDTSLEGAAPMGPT
# Chain of UniProt P52699 (whole entry, looked up): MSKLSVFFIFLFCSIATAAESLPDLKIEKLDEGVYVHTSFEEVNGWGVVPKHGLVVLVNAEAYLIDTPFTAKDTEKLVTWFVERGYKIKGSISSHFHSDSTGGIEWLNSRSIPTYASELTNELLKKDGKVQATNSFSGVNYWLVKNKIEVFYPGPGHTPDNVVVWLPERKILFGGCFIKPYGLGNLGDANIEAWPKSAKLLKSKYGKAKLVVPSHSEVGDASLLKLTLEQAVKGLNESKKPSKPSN
Structure (SMILES),target,assay,system,setting,IC50
N#Cc1c(O)nsc1Nc1ccccc1C(F)(F)F,"SARM1 (Homo sapiens, UniProt Q6SZW1, C649A)","enzyme activity, inhibitor",,,0.57 µM
COc1cc(-c2nc3ccc(C(=O)NCCN4CCN(C5CCCCC5)CC4)cc3n2C2CCC2)cc(OC)c1OC,"ACVR1 (Homo sapiens, UniProt Q04771, R206H)","binding, NanoBRET",HEK293,,3.16 µM
CCn1c(SC(C)C(=O)Nc2ccccc2C)nnc1C1CCN(C(=O)Nc2ccccc2)CC1 (centres unmarked),Seed linoleate 13S-lipoxygenase-1,"enzyme activity, inhibitor",,,23.6 µM
C=CCc1ccc(O)c(-c2cc(CC=C)ccc2OCCCC[P+](c2ccccc2)(c2ccccc2)c2ccccc2)c1,mitochondrial complex I (human),"oxygen consumption, inhibitor",UACC-62 (permeabilized),24 h,2.4 µM
CC(=O)N[C@@H]1[C@@H](O)[C@@H](O)[C@H](Oc2c(-c3ccc(O)cc3)oc3cc(O)cc(O)c3c2=O)O[C@H]1CC(C)C,"RPS6KA3 (Homo sapiens, UniProt P51812)","enzyme activity, inhibitor",,,2.33 µM
CC(C)C[C@H](NC(=O)[C@@H](Cc1c[nH]c2ccccc12)NC(=O)[C@H](Cc1ccc(O)cc1)NC(=O)[C@H](CO)NC(=O)[C@H](Cc1c[nH]c2ccccc12)NC(=O)[C@H](Cc1c[nH]cn1)NC(=O)[C@@H]1CCC(=O)N1)C(=O)N[C@@H](CCCNC(=N)N)C(=O)N1CCC[C@H]1C(=O)NCC(N)=O,"Gonadotropin-releasing hormone receptor (Rattus norvegicus, UniProt P30969)","ligand displacement in cells, radioligand",,,0.0005 µM
COc1ccc(C(=O)/C=C(\O)C(F)(F)C(F)(F)F)cn1,"formate-nitrite transporter (Plasmodium berghei, UniProt A0A509AFP9)","L-lactate transport, inhibitor",yeast,"pH 6.8, together with: 14C-L-lactate 1 mM",0.79 ± 0.05 µM
CC(=O)NCCN(CCC(=O)NCCN(CCC(=O)NCCN(CCC(=O)NCCC(N)=O)C(=O)[C@@H](N)CCCNC(=N)N)C(=O)[C@@H](N)CCCCN)C(=O)[C@@H](N)Cc1ccccc1,HIV-1 TAR RNA,"Tat/TAR complex displacement, FRET",,"room temperature, together with: 10 nM Tat/TAR complex",18 ± 0.8 µM
N=C(CF)NCCC[C@H](NC(=O)c1ccc(/N=N/c2ccccc2)cc1)c1nc2ccccc2[nH]1,"PADI2 (Homo sapiens, UniProt Q9Y2J8)","inhibitor, competitive ABPP",,"2 h, 37 °C, 30 min preincubation, together with: RFA probe 2 µM",11.8 µM
CNC(=O)C1CCN(c2ccccc2NC(=O)c2ccc(-c3cc(O)ccc3C)c(C)c2)CC1,YES1,"target engagement in cells, BRET",,,12.9 µM
CCCCn1nc(-c2cc(Br)ccc2F)nc2c(=O)n(C)c(=O)nc1-2,TPR,"inhibitor, DTNB-coupled colourimetric",,together with: substrate at Km,> 100 µM
CC1CN(c2ncnc3[nH]cnc23)CC(C)O1 (centres unmarked),"Sensor histidine protein kinase/phosphatase WalK (walK, Streptococcus pneumoniae, UniProt Q8DPL8)","enzyme activity, ATP-competitive inhibitor",,,1190 µM
COc1cc(OC)c(C(=O)/C=C/c2cccc(OC)c2OC)c(OC)c1,Seed linoleate 13S-lipoxygenase-1,"enzyme activity, inhibitor, absorbance",,,116 µM
CN(C)CCNC(=O)c1cc(-c2ccccc2)nc2ccc(Br)cc12,TPR,"inhibitor, DTNB-coupled colourimetric",,together with: substrate at Km,> 100 µM
O=c1c(-c2nnc(C(F)(F)F)s2)c[nH]n1-c1ccccn1,"EGLN2 (Homo sapiens, UniProt Q96KS0)","enzyme activity, inhibitor, europium VBC binding",,"10 µM FeSO4, 2 mM ascorbate, together with: 20 µM 2-oxoglutarate",1.2 µM
C[C@@H](c1ccn(Cc2ccc(Cl)cc2Cl)n1)[C@](O)(Cn1cnnn1)c1ccc(F)cc1F,"Cytochrome P450 2C9 (CYP2C9, Homo sapiens, UniProt P11712)","enzyme activity, inhibitor","human, liver microsomes",,3.07 µM
O=C(c1ccc(F)cc1)N1CCN(c2ccc(F)cc2)CC1,"SEC14 (Saccharomyces cerevisiae, UniProt P24280)","enzyme activity, inhibitor, radiometric",,,56.5 µM
CCN(c1nc(N[C@H](CC(N)=O)C(=O)NC)nc(N2CCN(c3ccccc3C#N)CC2)n1)C1CCCCC1,"Slit homolog 2 protein, with SLIT2 (SLIT2, Homo sapiens, UniProt O94813)","inhibitor, TR-FRET",,,68.8 ± 12.5 µM
COc1cc(-c2nc3ccc(C(=O)NCCCN4CCN(C(=O)c5ccccc5)CC4)cc3n2C2CCC2)cc(OC)c1OC,"ACVR1 (Homo sapiens, UniProt Q04771)","target engagement in cells, BRET",,,1.08 µM
CNC(=O)C1CCN(c2cc(C)ccc2NC(=O)c2ccc(-c3cc(O)ccc3C)c(C)c2)CC1,"EPHA4 (Homo sapiens, UniProt P54764)","target engagement in cells, BRET",,,0.01 µM
CN(C)C/C=C/C(=O)Nc1ccc2nc(NCCCCCN(C)C)nc(NCCCCCCN(C)C)c2c1,"M-phase phosphoprotein 8, chromodomain (Homo sapiens, UniProt Q99549)","methyl-lysine binding, TR-FRET",,,90 µM
COc1cccc2[nH]cc(-c3nc4ccccc4[nH]c3=O)c12,"JAK2 (Homo sapiens, UniProt O60674)","enzyme activity, inhibitor, ADP detection",,,0.0198 µM
Cc1cc(O)cc2c1C(=O)c1c(cc3oc(=O)cc(C)c3c1O)C2=O,mushroom tyrosinase,enzyme activity,,together with: L-DOPA,52.9 ± 0.65 µg/mL
CC(C)NCc1ccc(C[C@@H]2NC(=O)[C@@H](Cc3c[nH]c4ccccc34)NC(=O)[C@H](Cc3ccccc3)NC(=O)[C@@H](NC(=O)[C@H](N)Cc3ccccc3)CSSC[C@@H](C(=O)N[C@H](C(N)=O)[C@@H](C)O)NC(=O)[C@H](Cc3ccc(O)c(I)c3)NC2=O)cc1,"SSTR3 (Homo sapiens, UniProt P32745)","ligand displacement, radioligand",,cell membranes,0.864 µM
CC(=O)N[C@H]1[C@@H](OC(=O)NCCCOCCOCCOCCCNC(=O)O[C@H]2O[C@H](CNC(=O)OCCOCCOCCOCCOCCOCCOCCOCCOC(=O)NC[C@H]3O[C@H](OC(=O)NCCCOCCOCCOCCCNC(=O)O[C@H]4O[C@H](CO)[C@@H](O)[C@H](O)[C@H]4NC(C)=O)[C@H](NC(C)=O)[C@@H](O)[C@@H]3O)[C@@H](O)[C@H](O)[C@H]2NC(C)=O)O[C@H](CO)[C@@H](O)[C@@H]1O,wheat germ agglutinin (Triticum vulgaris),"binding to immobilised GlcNAc, inhibitor, enzyme-linked lectin",,together with: HRP-labelled WGA,0.037 µM
Brc1ccc(NCc2cn(-c3ccccc3)nc2-c2ccc(OCc3ccccc3)cc2)cc1,"PTGS1 (Homo sapiens, UniProt P23219)","enzyme activity, inhibitor, absorbance",,,125 µM
CC(C)n1cnc(C[C@H](NC(=O)c2cnccn2)C(=O)N2CCC[C@H]2C(N)=O)c1,"Thyrotropin-releasing hormone receptor (Mus musculus, UniProt P21761)","ligand displacement, radioligand",,,> 50 µM
Nc1nc(Cl)nc2c1ncn2Cc1cc(OCC(F)F)cc(OC(F)F)c1,"PDE7A (Homo sapiens, UniProt Q13946)","enzyme activity, inhibitor",,,4.85 µM
CNC(=O)c1cc(C)ccc1NC(=O)c1ccc(-c2cc(O)ccc2C)c(C)c1,YES1,"target engagement, NanoBRET",intact cells,,> 50 µM
CNC(=O)c1ccc(Oc2nc3c(c(=O)n(C)c(=O)n3C)n2CCC(C)C)cc1,"ALDH2 (Homo sapiens, UniProt P05091)","enzyme activity, inhibitor",,,2.4 µM
CNC(=O)C(CS)N1C(=O)c2ccc(N(C)C)cc2C1=O (centres unmarked),"Metallo-beta-lactamase type 2 (Serratia marcescens, UniProt P52699)","enzyme activity, inhibitor",,"pH 7.0, together with: chromacef 25 µM",0.48 ± 0.06 µM
N#C/C(=C\c1cccc(-c2cn[nH]c2)c1)C(N)=O,RPS6KA3 C-terminal kinase domain,"enzyme activity, inhibitor",,"10 mM reduced glutathione, together with: 0.1 mM ATP, peptide substrate",1.2 µM
Nc1nc2c(=O)n3cnc2n1[C@@H]1O[C@H](Cn2cc(nn2)COC[C@H]2O[C@@H]3[C@H](O)[C@@H]2O)[C@@H](O)[C@H]1O,"CD38 (Homo sapiens, UniProt P28907)","enzyme activity, inhibitor",,,185 µM
O=P(O)(O)OC[C@H]1O[C@@](O)(C(F)(F)F)[C@H](O)[C@@H](O)[C@@H]1O,"pgmB (Lactococcus lactis, UniProt P71447)","enzyme activity, inhibitor",,"pH 7.2, 25 °C, together with: beta-glucose 1-phosphate 10 µM",621 ± 82 µM
Cn1c(=O)n(C)c2cc(/C=C(\C#N)C(N)=O)ccc21,RPS6KA3 C-terminal kinase domain,"enzyme activity, inhibitor",,"10 mM reduced glutathione, together with: 0.1 mM ATP, peptide substrate",6 µM

# Excerpt of the above:
Structure (SMILES),target,assay,system,setting,IC50
CNC(=O)c1cc(C)ccc1NC(=O)c1ccc(-c2cc(O)ccc2C)c(C)c1,YES1,"target engagement, NanoBRET",intact cells,,> 50 µM
CC(=O)N[C@H]1[C@@H](OC(=O)NCCCOCCOCCOCCCNC(=O)O[C@H]2O[C@H](CNC(=O)OCCOCCOCCOCCOCCOCCOCCOCCOC(=O)NC[C@H]3O[C@H](OC(=O)NCCCOCCOCCOCCCNC(=O)O[C@H]4O[C@H](CO)[C@@H](O)[C@H](O)[C@H]4NC(C)=O)[C@H](NC(C)=O)[C@@H](O)[C@@H]3O)[C@@H](O)[C@H](O)[C@H]2NC(C)=O)O[C@H](CO)[C@@H](O)[C@@H]1O,wheat germ agglutinin (Triticum vulgaris),"binding to immobilised GlcNAc, inhibitor, enzyme-linked lectin",,together with: HRP-labelled WGA,0.037 µM
CC1CN(c2ncnc3[nH]cnc23)CC(C)O1 (centres unmarked),"Sensor histidine protein kinase/phosphatase WalK (walK, Streptococcus pneumoniae, UniProt Q8DPL8)","enzyme activity, ATP-competitive inhibitor",,,1190 µM
O=P(O)(O)OC[C@H]1O[C@@](O)(C(F)(F)F)[C@H](O)[C@@H](O)[C@@H]1O,"pgmB (Lactococcus lactis, UniProt P71447)","enzyme activity, inhibitor",,"pH 7.2, 25 °C, together with: beta-glucose 1-phosphate 10 µM",621 ± 82 µM
O=c1c(-c2nnc(C(F)(F)F)s2)c[nH]n1-c1ccccn1,"EGLN2 (Homo sapiens, UniProt Q96KS0)","enzyme activity, inhibitor, europium VBC binding",,"10 µM FeSO4, 2 mM ascorbate, together with: 20 µM 2-oxoglutarate",1.2 µM
